Measured values gathered from unrelated publications.
Compare with care: the assays were run in different laboratories. Numbers after ± are the reported error.

CCCC[C@H](NC(=O)CNC(=O)CNC(=O)CN1CCN(CC(=O)O)CCN(CC(=O)O)CC1)C(=O)N[C@H]1CC(=O)NCCCC[C@@H](C(N)=O)NC(=O)[C@H](Cc2c[nH]c3ccccc23)NC(=O)[C@H](CCCNC(=N)N)NC(=O)[C@@H](Cc2ccccc2)NC(=O)[C@H](Cc2c[nH]cn2)NC1=O [gallium-67 labelled]  tissue uptake (female C57 mice, B16/F1 melanoma, blood; intravenous, 0.037 MBq, 4 h): 1.02 ± 0.06 %ID/g
NC12CNCCNCC(NCc3ccc(CNC(=O)CCCC(=O)NCc4ccc(-c5nncnn5)cc4)cc3)(CNCCNC1)CNCCNC2.[64Cu+2]  tissue uptake (athymic nude mice, SW1222 xenograft, large intestine with contents; 4 h, pretargeting with huA33-TCO, 24 h interval): 0.48 ± 0.09 %ID/g
CC(C)[C@H](NC(=O)[C@@H]1CCCN1C(=O)[C@H](CCCNC(=N)N)NC(=O)[C@H](CS)NC(=O)[C@H](Cc1c[nH]c2ccccc12)NC(=O)[C@H](CCCNC(=N)N)NC(=O)[C@@H](Cc1ccccc1)NC(=O)[C@H](Cc1c[nH]cn1)NC(=O)[C@H](CCC(=O)O)NC(=O)[C@H](CS)NC(=O)[C@H](CS)NC(=O)[C@@H]1CC(=O)N[C@@H](CCCNC(=N)N)C(=O)NCC(=O)N[C@@H](CC(=O)O)C(=O)N[C@H](Cc2ccc(O)cc2)C(=O)N1)C(N)=O [technetium-99m labelled]  tissue uptake (C57 mice B16/F1 melanoma female, lung; iv, 2 h, added: NDP-MSH 10 µg co-injected): 1.13 ± 0.22 %ID/g
N=C(N)NCCC[C@@H]1NC(=O)[C@H](CCCCNC(=O)CON=C[C@H](F)[C@@H](O)[C@H](O)[C@H](O)CO)NC(=O)[C@@H](Cc2ccc(O)cc2)NC(=O)[C@H](CC(=O)O)NC(=O)CNC1=O [fluorine-18 labelled]  tissue uptake (nude mice U-87 MG tumour, heart; intravenous, 0.5 h): 1.11 ± 0.22 %ID/g
O=C([O-])CN1CCN(CC(=O)[O-])CCN(CC(=O)NCCc2ccc3c(c2)C2C=CCC2C(c2cc4c(cc2Br)OCO4)N3)CCN(CC(=O)[O-])CC1.[111In+3] (stereo not drawn)  tissue uptake (mice with Hec50 tumour xenograft, pituitary; 2 h): 0.04 ± 0.03 %ID/g
O=C([O-])c1cccc(CN(CCN(Cc2cn(Cc3ccccc3)nn2)Cc2cccc(C(=O)[O-])n2)Cc2cn(Cc3ccccc3)nn2)n1.[64Cu+2]  tissue uptake (healthy athymic nude mice, liver; intravenous, 15 min): 17.7 %ID/g
CCCC[C@@H]1NC(=O)[C@@H](NC(=O)[C@H](CCC(=O)O)NC(=O)CNC(=O)CN2CCN(CC(=O)O)CCN(CC(=O)O)CCN(CC(=O)O)CC2)CCCCNC(=O)C[C@@H](C(N)=O)NC(=O)[C@H](C(C)C)NC(=O)[C@@H]2CCCN2C(=O)[C@H](CCCNC(=N)N)NC(=O)CNC(=O)[C@H](Cc2c[nH]c3ccccc23)NC(=O)[C@H](CCCNC(=N)N)NC(=O)[C@@H](Cc2ccccc2)NC(=O)[C@H](Cc2c[nH]cn2)NC(=O)[C@H](CCC(=O)O)NC1=O [gallium-67 labelled]  tissue uptake (C57 mice, B16/F10 lung metastases, muscle; intravenous, 0.037 MBq/mouse, 4 h): 0.17 ± 0.11 %ID/g
N=C(N)NCCC[C@H](NC(=O)CON=C[C@H](F)[C@@H](O)[C@H](O)[C@H](O)CO)C(=O)NCC(=O)N[C@@H](CC(=O)O)C(=O)O [fluorine-18 labelled]  tissue uptake (nude mice U-87 MG tumour, heart; intravenous, 2 h): 3.67 ± 0.26 %ID/g
CCCC[C@H](NC(=O)CN1CCC(NC(=O)CN2CCN(CC(=O)O)CCN(CC(=O)O)CCN(CC(=O)O)CC2)CC1)C(=O)N[C@H]1CC(=O)NCCCC[C@@H](C(N)=O)NC(=O)[C@H](Cc2c[nH]c3ccccc23)NC(=O)[C@H](CCCNC(=N)N)NC(=O)[C@@H](Cc2ccccc2)NC(=O)[C@H](Cc2c[nH]cn2)NC1=O [gallium-68 labelled]  tissue uptake (male C57BL/6J mice, B16-F10 tumours, intestine; intravenous, 1 h, blocking study, added: 100 µg non-radioactive Ga-peptide): 1.2 ± 0.6 %ID/g
CCCC[C@H](NC(=O)CNC(=O)CNC(=O)CN1CCN(CC(=O)O)CCN(CC(=O)O)CCN(CC(=O)O)CC1)C(=O)N[C@H]1CC(=O)NCCCC[C@@H](C(N)=O)NC(=O)[C@H](Cc2c[nH]c3ccccc23)NC(=O)[C@H](CCCNC(=N)N)NC(=O)[C@@H](Cc2ccccc2)NC(=O)[C@H](Cc2c[nH]cn2)NC1=O [gallium-67 labelled]  tissue uptake (female C57 mice, B16/F1 melanoma, lung; intravenous, 0.037 MBq, 4 h): 0.36 ± 0.08 %ID/g
N#C[C@@H]1CCCN1C(=O)CNC(=O)c1ccnc2ccc(OCCCN3CCN(C(=O)CCc4ccc(O)c(CN5CCN6CC(=O)[O][Al-]([18F])([O]C(=O)C5)[O]c5ccc(CCC(=O)N7CCN(CCCOc8ccc9nccc(C(=O)NCC(=O)N%10CCC[C@H]%10C#N)c9c8)CC7)cc5C6)c4)CC3)cc12 (stereo partly drawn)  tissue uptake (BALB/c nude mice, U-87 MG xenograft, tumour; 1 h, blocked 60 min, added: DOTA-FAPI-04 40 nmol co-injected): 4.18 ± 0.3 %ID/g
CN1C(=O)[C@@H](Cc2ccc(O)c(I)c2)NC(=O)CNC(=O)[C@H](Cc2ccc3ccccc3c2)NC(=O)[C@H](CCCNC(=N)N)NC(=O)[C@H]1CCCNC(=O)c1ccc(CNC(=O)CN2CCN(CC(=O)O)CCN(CC(=O)O)CCN(CC(=O)O)CC2)cc1 [lutetium-177 labelled]  tissue uptake (item: 177Lu radioactivity; female CB-17 SCID mice, Daudi xenograft, lung; intravenous, 0.16 nmol per mouse, 1 h): 2.5 ± 0.7 %ID/g

Excerpt of the above:
N=C(N)NCCC[C@@H]1NC(=O)[C@H](CCCCNC(=O)CON=C[C@H](F)[C@@H](O)[C@H](O)[C@H](O)CO)NC(=O)[C@@H](Cc2ccc(O)cc2)NC(=O)[C@H](CC(=O)O)NC(=O)CNC1=O [fluorine-18 labelled]  tissue uptake (nude mice U-87 MG tumour, heart; intravenous, 0.5 h): 1.11 ± 0.22 %ID/g
